Assay results from different studies.
Cell line: SK-MEL-5

`CC(C)c1ccc(N(C)c2ccc3c(c2)OCC[C@H]3CNc2cnccc2C(=O)O)cc1` has an IC50 of 16.8 nM (cell viability, CellTiter-Glo; 7 days).
With `Cn1ncc(-c2ccc3c(=O)[nH]nc(CN)c3c2)c1-c1c(F)c(Cl)cc(OC2CC2)c1C#N` the IC50 was 40 nM (cell viability, inhibitor, CellTiter-Glo; 120 h, baseline-subtracted).
`CCCC(CCC)C(=O)OCc1cn(-c2cc3ccccc3oc2=O)nn1` gave a growth percentage of 92.8% (NCI60 single-dose screen; 10 µM).
`Cc1ccc([N+](=O)[O-])cc1S(=O)(=O)N(C)/N=C/c1cnc2ccc(Br)cn12` gave an IC50 of > 10000 nM (cell growth or viability).
`CNS(=O)(=O)Nc1nccc(Cc2c(C)c3ccc(Oc4ncccc4F)cc3oc2=O)c1F` has an IC50 of > 1000 nM (cell viability; 7 days).
With `O=C(Nc1nnc2c1c(-c1ccc(Cl)cc1)nc1sc(=Cc3ccco3)c(=O)n12)c1ccccc1` (mixture of isomers) the cell growth was 45.8% (SRB; 10 µM, NCI60 single-dose screen; baseline: untreated).
For `CCN(C(=O)c1cc(F)ccc1Oc1nncnc1N1CCC2(C1)CN([C@H](CCCN(C)CCOC)C(C)C)C2)C(C)C`, the GI50 was > 10000 nM (cell growth or viability; 7 days).
`CN(C)CCN1CCN(c2ccc3nc(-c4ccc5nc(-c6ccc(C(F)(F)F)cc6)[nH]c5c4)[nH]c3c2)CC1` gave a growth percent of 23.6% (SRB; 10 µM, 48 h).
`C1=[N+]2CCCC[N+]3=Cc4ccc5[n]4[Au-]23[n]2c1ccc2-c1nc2ccccc2nc1-5.F[P-](F)(F)(F)(F)F` gave a TGI of 4.44 -log M (NCI60 five-dose screen).

Excerpt of the above:
`C1=[N+]2CCCC[N+]3=Cc4ccc5[n]4[Au-]23[n]2c1ccc2-c1nc2ccccc2nc1-5.F[P-](F)(F)(F)(F)F` gave a TGI of 4.44 -log M (NCI60 five-dose screen).
